Assay results collected from several papers.
Values joined by “and” are separate records of one study, mostly repeats; a detail may differ. ± marks the error that the study gave. ≈ marks a conversion by molar mass, not a printed value.
Organism: Acinetobacter baumannii

| SMILES | assay | system | setting | how to read | measurement | value |
| --- | --- | --- | --- | --- | --- | --- |
| N=C(N)NCCC[C@H](NC(=O)[C@@H](N)CCCNC(=N)N)C(=O)N[C@@H](Cc1c[nH]c2ccccc12)C(=O)N[C@@H](Cc1c[nH]c2ccccc12)C(=O)N[C@@H](CCC(N)=O)C(=O)N[C@@H](Cc1ccccc1)C(=O)N[C@@H](CCC(N)=O)C(=O)N[C@@H](Cc1ccccc1)C(=O)N[C@@H](CCCCN)C(N)=O |  |  |  |  | MBC | 39 µM (≈ 53.8 µg/mL) |
| NC[C@H]1O[C@H](O[C@H]2[C@H](O)[C@@H](O[C@H]3O[C@H](CO)[C@@H](O)[C@H](N)[C@H]3O)[C@H](N)C[C@@H]2N)[C@H](O)[C@@H](O)[C@@H]1O | colony counting | 19606, biofilm | 100 µg/mL, 12 h, with: HNP1 8 µM |  | survival | 0.908% and 0.877% and 0.595% and 0.658% and 1.25% |
| CC(N)C(O)CCCCCCCCCCCCCCC(=O)CCCCCCCC(O)C(C)N (centres unmarked) | resazurin | ATCC 19606 | 50 µM |  | growth inhibition | 83 ± 1.05% |
| C[C@@H](O)[C@H]1C(=O)N2C(C(=O)O)=C(S[C@@H]3CN[C@H](C(=O)Nc4cccc(C(=O)O)c4)C3)[C@H](C)[C@H]12 | checkerboard | carbapenem-resistant | concentration not given, with: anionic gold nanoparticle 8 µg/mL | baseline: MIC alone over combination | MIC fold reduction | 32 fold |
| N=C(N)NCCC[C@H](NC(=O)[C@H](Cc1c[nH]c2ccccc12)NC(=O)[C@H](CCCNC(=N)N)NC(=O)[C@@H](N)Cc1c[nH]c2ccccc12)C(=O)N[C@@H](Cc1ccccc1)C(=O)N[C@@H](CCC(N)=O)C(=O)N[C@@H](Cc1ccccc1)C(=O)N[C@@H](CCC(N)=O)C(=O)N[C@@H](Cc1ccccc1)C(=O)N[C@@H](CCCCN)C(N)=O |  |  |  |  | MBC | 140 µM (≈ 214 µg/mL) |
| C[C@@H](O)[C@H]1C(=O)N2C(C(=O)O)=C(S[C@@H]3CN[C@H](CNS(N)(=O)=O)C3)[C@H](C)[C@H]12 | checkerboard | carbapenem-resistant | concentration not given, with: anionic gold nanoparticle 8 µg/mL | baseline: MIC alone over combination | MIC fold reduction | 8 fold |
| CC[C@H](C)[C@H](NC(=O)[C@H](C)NC(=O)[C@H](CCCCN)NC(=O)[C@H](CC(C)C)NC(=O)[C@H](C)NC(=O)[C@@H](NC(=O)[C@H](Cc1c[nH]cn1)NC(=O)[C@H](CC(C)C)NC(=O)[C@@H](NC(=O)[C@@H](NC(=O)[C@H](CCCCN)NC(=O)[C@H](C)NC(=O)[C@H](C)NC(=O)[C@H](CO)NC(=O)[C@H](CCCCN)NC(=O)[C@H](Cc1ccccc1)NC(=O)[C@@H](NC(=O)[C@H](CCCCN)NC(=O)[C@H](CC(C)C)NC(=O)[C@H](Cc1ccccc1)NC(=O)[C@H](CO)NC(=O)[C@H](CCCCN)NC(=O)[C@H](Cc1c[nH]c2ccccc12)NC(=O)[C@H](CCCCN)NC(C)=O)[C@@H](C)O)[C@@H](C)O)C(C)C)[C@@H](C)O)C(=O)N[C@@H](CO)C(=O)N[C@@H](CO)C(N)=O |  | ATCC 19606 |  |  | MBC90 | 2 µg/mL (≈ 0.682 µM) |
| CNC(C)C1CCC(N)C(OC2C(N)CC(N)C(OC3OCC(C)(O)C(NC)C3O)C2O)O1 (centres unmarked) |  | 19606, biofilm | 25 µg/mL, with: HNP1 8 µM |  | survival | 14.4% and 8.5% and 6.8% and 22.1% and 11.9% and 15.3% |
| C[C@@H](O)[C@H]1C(=O)N2C(C(=O)O)=C(SCCN=CN)C[C@H]12 | checkerboard | carbapenem-resistant | concentration not given, with: anionic gold nanoparticle 8 µg/mL | baseline: MIC alone over combination | MIC fold reduction | 8 fold |
| CN(C)[C@@H]1C(O)=C(C(N)=O)C(=O)[C@@]2(O)C(O)=C3C(=O)c4c(O)cccc4[C@@](C)(O)[C@H]3C[C@@H]12 |  | 19606, biofilm | 50 µg/mL, without HNP1 |  | survival | 69.5% and 71.4% and 59.7% and 71% and 58.1% and 68.7% |
| N=C(N)c1ccc(OCc2cc(COc3ccc(C(=N)N)cc3)cc(-c3ccccc3)c2)cc1 |  | ATCC 17978 | concentration not given, with: rifampicin |  | MIC in combination | 3.13 µg/mL |
| Cn1c(=O)ccc2ccc(F)c(CCNC[C@H]3CN(c4ccc5c(n4)NC(=O)CO5)C(=O)O3)c21 |  | ATCC 19606 |  |  | MIC | 0.015 µg/mL |
| O=C(O)c1cccc(C(=O)O)n1 |  | NDM-2 producer | 32 µg/mL, with: meropenem |  | meropenem MIC | 2 µg/mL |
| C[C@@H](O)[C@H]1C(=O)N2C(C(=O)O)=C(S[C@@H]3CN[C@H](C(=O)N(C)C)C3)[C@H](C)[C@H]12 |  | rat, lung | intravenous bolus, 15 mg/kg twice daily | baseline: early control | change in lung bacterial load | -3.4 log10 CFU/g |
| CCCCCC(=O)N[C@@H](CCCNC(=N)N)C(=O)N[C@@H](CCCNC(=N)N)C(=O)N[C@@H](CCCNC(=N)N)C(=O)N[C@@H](CCCNC(=N)N)C(=O)N[C@H](C(=O)N[C@@H](CC(C)C)C(=O)N[C@H](C(=O)N[C@@H](CCCCN)C(=O)N[C@@H](CCCCN)C(=O)N[C@H](C(=O)N[C@@H](CC(C)C)C(=O)N[C@@H](CCCCN)C(=O)N[C@@H](CC(C)C)C(=O)N[C@@H](CCCCN)C(=O)N[C@@H](CO)C(=O)N[C@@H](CO)C(=O)N[C@@H](C)C(=O)N[C@@H](Cc1ccc(O)cc1)C(N)=O)C(C)C)[C@@H](C)CC)[C@@H](C)CC | broth microdilution | ATCC 17978 | highest value reported |  | MIC | 64 µM |
| Cn1c(=O)ccc2ccc(F)c(CCNC[C@H]3CN(c4cnc5c(n4)NC(=O)CO5)C(=O)O3)c21 |  |  |  |  | MIC50 | 0.25 µg/mL (≈ 0.534 µM) |
| N=C(N)NCCC[C@H](NC(=O)[C@H](Cc1c[nH]c2ccccc12)NC(=O)[C@@H](N)CCCNC(=N)N)C(=O)N[C@@H](Cc1c[nH]c2ccccc12)C(=O)N[C@@H](CCC(N)=O)C(=O)N[C@@H](Cc1ccccc1)C(=O)N[C@@H](CCC(N)=O)C(=O)N[C@@H](Cc1ccccc1)C(=O)N[C@@H](CCCCN)C(N)=O |  |  |  |  | MBC | 77 µM (≈ 106 µg/mL) |

A few entries again:
| SMILES | assay | system | setting | how to read | measurement | value |
| --- | --- | --- | --- | --- | --- | --- |
| CNC(C)C1CCC(N)C(OC2C(N)CC(N)C(OC3OCC(C)(O)C(NC)C3O)C2O)O1 (centres unmarked) |  | 19606, biofilm | 25 µg/mL, with: HNP1 8 µM |  | survival | 14.4% and 8.5% and 6.8% and 22.1% and 11.9% and 15.3% |
| N=C(N)c1ccc(OCc2cc(COc3ccc(C(=N)N)cc3)cc(-c3ccccc3)c2)cc1 |  | ATCC 17978 | concentration not given, with: rifampicin |  | MIC in combination | 3.13 µg/mL |
